Assay results gathered from unrelated publications.
Parts stem from different laboratories: compare values within a part only.
UniProt P41595, sequence (whole entry, looked up): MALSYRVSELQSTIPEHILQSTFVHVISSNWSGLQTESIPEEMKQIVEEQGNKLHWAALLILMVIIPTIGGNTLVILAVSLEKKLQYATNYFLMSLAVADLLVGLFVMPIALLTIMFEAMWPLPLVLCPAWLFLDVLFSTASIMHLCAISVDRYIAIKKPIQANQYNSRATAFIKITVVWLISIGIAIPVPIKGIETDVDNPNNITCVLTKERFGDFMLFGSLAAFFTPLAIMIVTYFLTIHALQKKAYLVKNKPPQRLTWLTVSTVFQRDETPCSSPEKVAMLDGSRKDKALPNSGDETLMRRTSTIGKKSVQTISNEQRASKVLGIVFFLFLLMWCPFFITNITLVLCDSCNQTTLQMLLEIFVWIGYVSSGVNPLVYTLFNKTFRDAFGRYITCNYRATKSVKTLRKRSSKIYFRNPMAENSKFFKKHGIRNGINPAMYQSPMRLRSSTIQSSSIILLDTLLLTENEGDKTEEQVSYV
UniProt P00519, sequence (whole entry, unmodified, looked up): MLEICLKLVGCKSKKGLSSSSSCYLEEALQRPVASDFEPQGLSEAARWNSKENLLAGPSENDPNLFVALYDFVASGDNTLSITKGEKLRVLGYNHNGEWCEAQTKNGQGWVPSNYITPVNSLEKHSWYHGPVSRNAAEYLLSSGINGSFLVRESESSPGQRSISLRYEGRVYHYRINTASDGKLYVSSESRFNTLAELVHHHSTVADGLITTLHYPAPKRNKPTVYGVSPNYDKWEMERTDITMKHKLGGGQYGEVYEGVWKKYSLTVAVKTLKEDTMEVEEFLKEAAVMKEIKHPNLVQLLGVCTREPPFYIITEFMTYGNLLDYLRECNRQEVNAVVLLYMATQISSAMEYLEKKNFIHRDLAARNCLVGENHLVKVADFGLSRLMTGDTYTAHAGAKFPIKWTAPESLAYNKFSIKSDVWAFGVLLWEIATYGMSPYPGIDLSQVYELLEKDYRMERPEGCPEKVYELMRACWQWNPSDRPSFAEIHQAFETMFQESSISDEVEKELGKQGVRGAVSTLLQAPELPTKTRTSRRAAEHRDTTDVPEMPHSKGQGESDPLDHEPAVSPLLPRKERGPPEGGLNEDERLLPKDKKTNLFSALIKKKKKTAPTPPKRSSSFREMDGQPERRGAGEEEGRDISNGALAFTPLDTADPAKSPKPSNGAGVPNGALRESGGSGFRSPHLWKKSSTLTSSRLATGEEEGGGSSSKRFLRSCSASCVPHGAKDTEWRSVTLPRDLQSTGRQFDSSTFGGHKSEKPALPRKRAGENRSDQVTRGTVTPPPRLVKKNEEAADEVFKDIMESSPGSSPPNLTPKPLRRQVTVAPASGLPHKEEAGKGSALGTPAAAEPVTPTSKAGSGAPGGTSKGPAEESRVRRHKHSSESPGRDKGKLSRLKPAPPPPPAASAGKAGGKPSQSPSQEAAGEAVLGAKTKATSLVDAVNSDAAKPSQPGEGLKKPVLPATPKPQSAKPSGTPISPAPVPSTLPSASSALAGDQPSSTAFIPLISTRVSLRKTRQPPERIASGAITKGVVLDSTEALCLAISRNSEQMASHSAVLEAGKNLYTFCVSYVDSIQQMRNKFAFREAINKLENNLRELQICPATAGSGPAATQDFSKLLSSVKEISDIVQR

Sample 1
Target: Tyrosine-protein kinase CSK (CSK, Homo sapiens, UniProt P41240)
UniProt P41240, sequence (whole entry, looked up): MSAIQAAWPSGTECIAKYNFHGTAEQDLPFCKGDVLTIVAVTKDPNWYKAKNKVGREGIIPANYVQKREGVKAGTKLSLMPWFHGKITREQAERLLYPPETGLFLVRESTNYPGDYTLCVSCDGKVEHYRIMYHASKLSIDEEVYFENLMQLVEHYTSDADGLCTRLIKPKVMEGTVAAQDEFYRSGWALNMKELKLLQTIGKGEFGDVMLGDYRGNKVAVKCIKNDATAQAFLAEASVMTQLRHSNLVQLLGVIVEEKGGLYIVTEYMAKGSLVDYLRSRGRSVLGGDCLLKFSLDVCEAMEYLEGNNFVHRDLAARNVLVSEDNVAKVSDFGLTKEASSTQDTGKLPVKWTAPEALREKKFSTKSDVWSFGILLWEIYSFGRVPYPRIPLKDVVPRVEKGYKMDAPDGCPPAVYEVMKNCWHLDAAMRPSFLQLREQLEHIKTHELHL
Read-out: enzyme activity
Mode: inhibitor
Tested at: 0.5 µM
Reference: control
With `CCOC(=O)c1c(C)[nH]c(/C=C2\C(=O)Nc3ccccc32)c1C` the remaining activity was 104%.
With `N#CC(C#N)=C(N)/C(C#N)=C/c1ccc(O)cc1` the remaining activity was 97.6%.
With `O=C(O)c1ccc2c3c1cccc3c(=O)n1c3ccccc3nc21` the remaining activity was 101%.
For `Cn1sc(=O)n(Cc2ccccc2)c1=O`, the remaining activity was 101%.
For `COc1cc2nccc(Oc3ccc(NC(=S)NC(=O)c4ccccc4C)cc3)c2cc1OC`, the remaining activity was 75.3%.
`Nc1ncnc2n[nH]c(Nc3ccc(F)cc3)c12` has a remaining activity of 80.2%.
With `O=C(Nc1cccc(Nc2cc(Nc3cccc(C(F)(F)F)c3)ncn2)c1)C1CC1` the remaining activity was 102%.
The remaining activity of `CN(C)c1ccc(C=C2C(=O)Nc3ccccc32)cc1` is reported as 96.9%.
`COc1ccc(OC)c2c(=S)c3ccccc3[nH]c12` has a remaining activity of 103%.
For `Nc1[nH]nc2nc3ccccc3nc12`, the remaining activity was 100%.
`Cc1nc(-c2ccccc2)c(-c2ccncc2)o1` has a remaining activity of 106%.
`OCC(O)CCON=C1C(c2c(O)[nH]c3ccccc23)=Nc2ccccc21` (stereo not drawn) gave a remaining activity of 86.3%.
With `Cc1ccc(NC(=O)c2ccc(CN3CCN(C)CC3)cc2)cc1Nc1nc(-c2cccnc2)cs1` the remaining activity was 104%.
`O=C(CCCc1ccc(-c2ccccc2F)cc1)Nc1ccc(O)cc1` gave a remaining activity of 88%.
`O=C1NC(=O)C(c2cn(CCCn3ccnc3)c3ccccc23)=C1Nc1ccccc1` has a remaining activity of 110%.

Sample 2
Target: Prothrombin, mature alpha-thrombin (F2, Homo sapiens, UniProt P00734)
Method: aptamer microarray, sandwich
Form: DNA with 2'F-ANA
Medium: in vitro
Tested at: 200 nM
Notes: whole 15-mer aptamer, many near background
Added: Cy3 exosite-II aptamer, 400 nM
Reading: higher = stronger binding
Strand: GGTTGGTGTGGTTGG
For `2'F-ANA at 1 4 5 7 8 10 11`, “mean fluorescence intensity” read 47.1 a.u.
Under “mean fluorescence intensity”, `2'F-ANA at 1 2 3 4 5 6 11 12 13` is recorded as 67 a.u.
For `2'F-ANA at 4 5 8 9`, “mean fluorescence intensity” read 75.9 a.u.
For `2'F-ANA at 1 5 6 7 10 11 12 13 14`, “mean fluorescence intensity” read 65.2 a.u.
Under “mean fluorescence intensity”, `2'F-ANA at 1 2 5` is recorded as 54.2 a.u.
`2'F-ANA at 1 3 4 8 9 10 11 14 15`: “mean fluorescence intensity” 51.7 a.u.
Under “mean fluorescence intensity”, `2'F-ANA at 2 4 6 7 9 10 11 13 15` is recorded as 74.6 a.u.
`2'F-ANA at 3 4 7 12 13 14 15`: “mean fluorescence intensity” 430 a.u.

Sample 3
Target: RNA binding protein fox-1 homolog 2, RRM domain, GST-SBP tag (RBFOX2, Homo sapiens, UniProt O43251-10, residues 100-194)
Method: RNA Bind-n-Seq
Form: RNA
Medium: in vitro
Tested at: 365 nM
Notes: natural RNA segment, single round, ends assumed
Reference: no-protein control
Reading: higher = stronger binding
Constant ends, left off below: GGGAGUUCUACAGUCCGACGAUC … UGGAAUUCUCGGGUGCCAA
Residues (chain): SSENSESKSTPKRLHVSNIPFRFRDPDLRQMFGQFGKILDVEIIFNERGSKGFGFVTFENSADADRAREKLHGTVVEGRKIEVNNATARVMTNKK
`AAACACAAGCAAAACAACAAAAUUAAUAAUCUGACGGAGGGGAAUUCUAGAAUUAUAUGCUAAAUGCAUAUUUUAUGAUUUGCUGUAUUAACUGAUGAUAAAACUAAUGG` — result for “RBNS enrichment (R)”: 1.08.
For `UGUGACUUCCUGGGCAGCCAUUGAAUUCAUUUUCCAUGAGAAGAUGACAGAGUUAGCCUGUGGCUAUAGGAGAUCAUGUCAUCCAGACCUUUUUGCCCAUCACAUUAACU`, “RBNS enrichment (R)” read 0.22.
Under “RBNS enrichment (R)”, `UUCAACGCUCUGUCCUCUGAGGAGUGUUGUGUCUGAUUUUAUUUUAAAAGUUCACGGUAUGAGAGUUAGUGCUUCUUCCCAAUUUGACCGUUGUAUAUUUUUGGAAACGU` is recorded as 0.51.
`GGUAUCCACCUUCAUGAUUUUAACUGACCCAUAACAAUGUUGUCAGCAGUAUAGGACUGUUGAACAGCCUGGUGUGUCAGGACCCCCAAAUGUCACUUCUGCCUAAAGCA` — result for “RBNS enrichment (R)”: 1.26.
`CAGACUGCCUUCCCGGGAUUUCUCUAACCUCUAGAGCGAUGGGAAUCAGCCUUGGACAGUGCCGCCUUCCAGAGCAGAAUCACUGAGCCCCACGGCUGAAGCUGCAUCUG` — result for “RBNS enrichment (R)”: 0.267.
For `CAGGACAGUCUGUCUUAAAUUUCAUAUGAGAACUUCUUCCUCCCUUUGAAGAUCUGUCCAUAUUCAGGAAUCUGAGAGUGUUAAAAAAAGGUACCAAUCAUUGAUUUUUC`, “RBNS enrichment (R)” read 0.438.
`UUAACCACACAUUGUGGGUGAUGGGAAGACGAUUUCAGCUGACAGAGUUAAUGGCAACCAAUAAUGGUGGCCUGUAGCUGCUAAGAGCUUCACGCAGGUUUGGCCUGGGC` — result for “RBNS enrichment (R)”: 0.272.
Under “RBNS enrichment (R)”, `GAAUCCAGGGGCCUGCACUGAUCGGGUAGCAGCUACUUUGCCUGUCCUUGGCCGUCUCCCUCAGCUCUGCCUGGGCUCCGAGGGAGAUGGAAGUCCGUCAGGGAACAGGU` is recorded as 0.536.

Mixed results
`CNC(=O)Nc1ccc2c(c1)CC[C@]21OC(=O)N(CC(=O)N(Cc2ccc(F)cc2)[C@@H](C)C(F)(F)F)C1=O` has a remaining binding of 75% (Tyrosine-protein kinase ABL1 (ABL1, Homo sapiens, UniProt P00519, E255K); KINOMEscan; 1 µM, E255K mutant, phosphorylated; reference: control).
With `C[C@@H]1CN(c2cc(-c3nn(C)c4ccc(OC5(C)CC5)cc34)ncn2)C[C@H](C)O1` the inhibition was 26.7% (5-hydroxytryptamine receptor 2B (HTR2B, Homo sapiens, UniProt P41595); binding, radioligand binding; 10 µM).

Repeated from above (sample 1):
With `Cc1ccc(NC(=O)c2ccc(CN3CCN(C)CC3)cc2)cc1Nc1nc(-c2cccnc2)cs1` the remaining activity was 104%.
`O=C(CCCc1ccc(-c2ccccc2F)cc1)Nc1ccc(O)cc1` gave a remaining activity of 88%.
`O=C1NC(=O)C(c2cn(CCCn3ccnc3)c3ccccc23)=C1Nc1ccccc1` has a remaining activity of 110%.
